Experimental data gathered from unrelated publications.
Protocols differ between the studies behind these lines. Numbers after ± are the reported error.
BCHE: Cholinesterase (BCHE, Homo sapiens, UniProt P06276)
Sequence of UniProt P06276 (whole entry, looked up): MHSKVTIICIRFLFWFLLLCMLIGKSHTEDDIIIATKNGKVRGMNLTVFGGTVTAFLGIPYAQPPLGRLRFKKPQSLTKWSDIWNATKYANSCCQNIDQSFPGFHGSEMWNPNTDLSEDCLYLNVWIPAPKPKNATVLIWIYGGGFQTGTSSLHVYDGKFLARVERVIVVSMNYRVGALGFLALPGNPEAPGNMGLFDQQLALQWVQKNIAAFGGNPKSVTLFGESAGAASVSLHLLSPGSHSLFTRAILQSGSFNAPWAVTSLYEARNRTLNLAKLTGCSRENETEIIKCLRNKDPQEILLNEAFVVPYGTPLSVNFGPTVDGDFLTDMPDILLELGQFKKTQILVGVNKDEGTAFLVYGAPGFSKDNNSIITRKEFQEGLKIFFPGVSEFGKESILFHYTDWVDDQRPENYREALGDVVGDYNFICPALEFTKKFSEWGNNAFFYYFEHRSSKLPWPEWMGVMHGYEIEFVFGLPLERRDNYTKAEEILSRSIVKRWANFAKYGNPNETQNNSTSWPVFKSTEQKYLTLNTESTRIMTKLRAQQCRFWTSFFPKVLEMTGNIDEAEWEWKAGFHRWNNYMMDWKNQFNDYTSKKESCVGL

SMILES | target or system | test | system | conditions | scale | endpoint | value
CC(=O)c1c(C)c2cnc(Nc3ccc(C4CCN(CCS(C)(=O)=O)CC4)cn3)nc2n(C2CCCC2)c1=O |  |  | human plasma |  |  | plasma stability t1/2 | > 6.67 h
[O-][S+]1CCc2nc(N3CCC(c4ncc(Cl)cn4)CC3)nc(NC3(CO)CCC3)c21 (stereo not shown) |  | item: gastrointestinal disorders | healthy male subjects | dose not given, single rising dose, total |  | subjects with adverse event | 25%
CC1(C)[C@H](C=C(Cl)Cl)[C@H]1C(=O)OCc1cccc(Oc2ccccc2)c1 |  | item: CYP2C9 | human, age 1 year, recombinant human CYP2C9 | 0.1 µM |  | enzyme contribution to clearance | 0.88%
CCN1[C@@H](C(=O)NC23CCC(C(=O)O)(CC2)CC3)[C@H](c2cccc(Cl)c2F)[C@]2(C(=O)Nc3cc(Cl)ccc32)C12CCCCC2 |  |  | patients with advanced solid tumours | oral, dose not given, all doses |  | Anemia incidence | 52.4%
CC(C)C[C@@H]1NC(=O)CNC(=O)[C@H](CC(N)=O)NC(=O)[C@H](CCCNC(=N)N)NC(=O)[C@H]([C@@H](C)O)NC(=O)[C@@H]2CSSC[C@@H]3NC(=O)[C@H]([C@@H](C)O)NC(=O)CNC(=O)CNC(=O)[C@H](C(C)C)NC(=O)[C@@H]4CSSC[C@H](NC(=O)[C@H]([C@@H](C)O)NC(=O)[C@H](CSSC[C@H](NC(=O)[C@H](C(C)C)NC(=O)[C@@H]5CCCN5C1=O)C(=O)NCC(=O)N[C@@H](CCC(=O)O)C(=O)N[C@@H]([C@@H](C)O)C(=O)N4)NC(=O)CNC(=O)[C@@H]1CCCN1C(=O)[C@H](CCCCN)NC(=O)[C@H](CC(N)=O)NC3=O)C(=O)N[C@@H](CO)C(=O)N[C@@H](Cc1c[nH]c3ccccc13)C(=O)N1CCC[C@H]1C(=O)N[C@@H](C(C)C)C(=O)N2 |  | HPLC | water | 180 µM, 14 days, 37 °C, deamidation stability |  | remaining peptide | 99.1 ± 0.2%
Clc1cc(Cl)c(-c2cc(Cl)c(Cl)cc2Cl)cc1Cl |  |  | fresh water | 20 °C, SSP sampler, 100 µm |  | log K(PDMS-water) | 6.37 ± 0.04
CCN(CCO)CCCC(C)Nc1ccnc2cc(Cl)ccc12 (stereo not shown) |  |  | newly diagnosed glioblastoma patients | oral, 800 mg/dose, grade 1, with: radiotherapy and temozolomide |  | anemia patients | 33%
C[N+](C)(C)CCCCCCCCCC[N+](C)(C)C | BCHE | enzyme activity, fluorescence |  |  |  | IC50 | 17.3 ± 1.99 µM
COc1cc(N2CC[C@@]3(O)C(=O)c4cc(C)c(C)cc4N=C23)ccn1 |  | rotarod | mice | 10 mg/kg |  | motor learning and memory | no effect
CN1CCN(c2ccc(Nc3nccc(-c4cccc(Cl)c4)n3)cc2C(F)(F)F)CC1 |  |  | zebrafish embryos | 50 µM, 5 d |  | toxicity | 0%
CO[C@H]1C[C@@H]2CC[C@@H](C)[C@@](O)(O2)C(=O)C(=O)N2CCCC[C@H]2C(=O)O[C@H]([C@H](C)C[C@@H]2CC[C@@H](OC(=O)NCCOCCOCCOCCOCCOCCOCCOCCOCCC(=O)N3CCc4cc(Cn5nc(-c6ccc7oc(N)nc7c6)c6c(N)ncnc65)ccc4C3)[C@H](OC)C2)C[C@@H](O)[C@H](C)/C=C(\C)[C@@H](O)[C@@H](OC)C(=O)[C@H](C)C[C@H](C)/C=C/C=C/C=C/1C |  | phase 1 dose escalation | advanced solid tumour patients | intravenous, 16 mg weekly, any grade |  | any TRAE incidence | 75%
CCc1ccc(CC/C=C/c2ccc3c(c2)C(=O)CC3)cc1 |  |  | Sprague-Dawley rat, male | oral, 450 mg/kg/day, 14 days |  | CHCM | 319 g/L
CC(C)C[C@H](NC(=O)[C@H](Cc1ccccc1)NC(=O)[C@H](Cc1ccccc1)NC(=O)Cc1ccc(-c2ccccc2)cc1)C(=O)N[C@@H](CCCCN)C(=O)N[C@@H](CCCNC(=N)N)C(=O)N[C@H](C(=O)N[C@@H](Cc1c[nH]c2ccccc12)C(=O)N[C@@H](CCCCN)C(=O)N[C@@H](CCCNC(=N)N)C(=O)O)C(C)C |  |  | dog liver microsomes |  |  | hepatic clearance | 19.5 mL/min/kg
COc1cc2c(cc1OC)CN(CCc1ccc(NC(=O)c3cccc4c(=O)c5cccc(OC)c5[nH]c34)cc1)CC2 |  |  | CD-1 mouse, male, lung | intraperitoneal, 1 mg/kg |  | Tmax | 1 h
COc1ncnn2ccc(-c3cnc4nc(C)n(Cc5nnc([C@@H](C)F)o5)c4c3)c12 |  |  | human patients | oral, dose not given |  | incidence of grade 1 amylase increased | 0%
COc1cc2nc(N3CCN(C(=O)C4COc5ccccc5O4)CC3)nc(N)c2cc1OC (stereo not shown) | Plasmodium falciparum |  | D10 |  |  | IC50 | 2.51 µM

SMILES | target or system | test | system | conditions | scale | endpoint | value
CCC(CC)(NC(=O)c1ccc(N2CC(OC)C2)c(OC[C@H]2C[C@@H]2CO)n1)C(=O)NCCOCCOCCNC(=O)c1ccc2c(c1)C1(OC2=O)c2ccc(N(C)C)cc2[Si](C)(C)c2cc(N(C)C)ccc21 |  |  | PBS | 100 nM, pH 7.4, 0.1% DMSO |  | fluorescence quantum yield | 10.5%
CN1CC[C@@H](c2c(O)cc(O)c3c(=O)cc(-c4ccc(C(F)(F)F)cc4Cl)oc23)[C@@H]1CO |  | item: Thrombocytopenia | relapsed B-cell malignancies | oral, 150 mg, grade 3-4, intermittent dosing |  | patients with adverse event | 0%
O=C(Nc1ccccc1)C1CCN(C(=O)Oc2cccnc2)CC1 |  |  | healthy women | oral, 20 mg, 7 days |  | back pain adverse events | 7.1%
CC[C@H](C)[C@H](NC(=O)[C@H](Cc1ccc(O)cc1)NC(=O)[C@@H]1CCCN1C(=O)[C@H](CCCNC(=N)N)NC(=O)[C@@H](N)CCCNC(=N)NC(=O)NCCOCCOCC[n+]1c(C)cc(/C=C/C=C/c2ccc(N(C)C)cc2)cc1C)C(=O)N[C@@H](CC(C)C)C(=O)O |  |  | PBS with 1% BSA |  | baseline: cresyl violet perchlorate | fluorescence quantum yield | 34%
C[C@]1(CO)Cc2ncn(-c3ccc(C#N)c(Cl)c3)c2C(=O)O1 |  |  | human | 10 mg multiple doses, fasted |  | subjects with drug-related somnolence | 0%
c1ccc(C2(c3ccccc3)CC2C2=NCCN2)cc1 (stereo not shown) | BCHE | inhibitor |  |  |  | IC50 | 4.17 ± 0.27 µM
COc1ncccc1-c1cnn2ccc(N3CCN(C(=O)OC(C)C)CC3)nc12 |  |  | mouse nerve ligation model, plasma | oral, 10 mg/kg, 120 min after last dose, repeat dosing day 5 |  | drug concentration | 1800 nM
COc1ccc2nc3cc(Cl)ccc3c(Nc3cc(CN4CCCC4)c(O)c(CN4CCCC4)c3)c2n1 |  |  | mouse, blood | intraperitoneal, 57 mg/kg |  | mean corpuscular haemoglobin | 16.8 pg
O=[N+]([O-])c1ccc2c(c1)S(=O)(=O)C=C2 |  | flow cytometry | male C57BL/6 mice, spleen | i.p., 20 mg/kg, 8 days | baseline: splenocytes | CD45+ cells | 81.7%
COc1cc2c(Oc3ccc4[nH]c(C)cc4c3F)ccnc2cc1OCC1(N)CC1 |  |  | paediatric recurrent refractory sarcoma | 8 mg |  | grade 1 or 2 Epistaxis | 0%
O=S(=O)(Nc1ccccc1)c1ccc(NC(=S)Nc2ccccc2)cc1 |  |  | male mouse, blood | oral, 80 mg/kg daily, 14 days |  | haematocrit | 44%
C[N+](C)(C)CCCCCNCC12CC3CC(CC(C3)C1)C2 | Plasmodium falciparum |  | 3D7 |  |  | IC50 | 10 µM
CC(C)C[C@@H]1NC(=O)CNC(=O)[C@H](CC(N)=O)NC(=O)[C@H](CCCNC(=N)N)NC(=O)[C@H]([C@@H](C)O)NC(=O)[C@@H]2CSSC[C@@H]3NC(=O)[C@H]([C@@H](C)O)NC(=O)[C@H](CCCCN)NC(=O)CNC(=O)[C@H](C(C)C)NC(=O)[C@@H]4CSSC[C@H](NC(=O)[C@H]([C@@H](C)O)NC(=O)[C@H](CSSC[C@H](NC(=O)[C@H](C(C)C)NC(=O)[C@@H]5CCCN5C1=O)C(=O)NCC(=O)N[C@@H](CCC(=O)O)C(=O)N[C@@H]([C@@H](C)O)C(=O)N4)NC(=O)CNC(=O)[C@@H]1CCCN1C(=O)[C@H]([C@@H](C)O)NC(=O)[C@H](CC(N)=O)NC3=O)C(=O)N[C@@H](CO)C(=O)N[C@@H](Cc1c[nH]c3ccccc13)C(=O)N1CCC[C@H]1C(=O)N[C@@H](C(C)C)C(=O)N2 |  | HPLC | ammonium bicarbonate | 180 µM, 14 days, pH 9.0, 25 °C, deamidation stability |  | remaining peptide | 90 ± 0.5%
Clc1cc(Cl)c(-c2c(Cl)c(Cl)c(Cl)c(Cl)c2Cl)cc1Cl |  |  | PDMS-water partitioning | PCB compilation | baseline: maximum over minimum K | literature range factor | 2
CCN1CCN(Cc2ccc(Nc3ncc(F)c(-c4cc(F)c5nc6n(c5c4)[C@H](C)CCC6)n3)nc2)CC1 |  |  | advanced solid tumour patients | dose not given, Phase Ia monotherapy |  | Nausea incidence, grade ≥3 | 0%

Some of these lines once more:
SMILES | target or system | test | system | conditions | scale | endpoint | value
[O-][S+]1CCc2nc(N3CCC(c4ncc(Cl)cn4)CC3)nc(NC3(CO)CCC3)c21 (stereo not shown) |  | item: gastrointestinal disorders | healthy male subjects | dose not given, single rising dose, total |  | subjects with adverse event | 25%
CC1(C)[C@H](C=C(Cl)Cl)[C@H]1C(=O)OCc1cccc(Oc2ccccc2)c1 |  | item: CYP2C9 | human, age 1 year, recombinant human CYP2C9 | 0.1 µM |  | enzyme contribution to clearance | 0.88%
CCN1[C@@H](C(=O)NC23CCC(C(=O)O)(CC2)CC3)[C@H](c2cccc(Cl)c2F)[C@]2(C(=O)Nc3cc(Cl)ccc32)C12CCCCC2 |  |  | patients with advanced solid tumours | oral, dose not given, all doses |  | Anemia incidence | 52.4%
CC(C)C[C@@H]1NC(=O)CNC(=O)[C@H](CC(N)=O)NC(=O)[C@H](CCCNC(=N)N)NC(=O)[C@H]([C@@H](C)O)NC(=O)[C@@H]2CSSC[C@@H]3NC(=O)[C@H]([C@@H](C)O)NC(=O)CNC(=O)CNC(=O)[C@H](C(C)C)NC(=O)[C@@H]4CSSC[C@H](NC(=O)[C@H]([C@@H](C)O)NC(=O)[C@H](CSSC[C@H](NC(=O)[C@H](C(C)C)NC(=O)[C@@H]5CCCN5C1=O)C(=O)NCC(=O)N[C@@H](CCC(=O)O)C(=O)N[C@@H]([C@@H](C)O)C(=O)N4)NC(=O)CNC(=O)[C@@H]1CCCN1C(=O)[C@H](CCCCN)NC(=O)[C@H](CC(N)=O)NC3=O)C(=O)N[C@@H](CO)C(=O)N[C@@H](Cc1c[nH]c3ccccc13)C(=O)N1CCC[C@H]1C(=O)N[C@@H](C(C)C)C(=O)N2 |  | HPLC | water | 180 µM, 14 days, 37 °C, deamidation stability |  | remaining peptide | 99.1 ± 0.2%
